Measurements pooled from the literature.
Lines come from different studies, so protocols differ. “And” joins repeats or separate records; there may be more than shown. ± marks the error that the study gave.

[Mn+2].[O-][Cl+3]([O-])([O-])[O-].[O-][Cl+3]([O-])([O-])[O-].c1ccc(CN2Cc3cccc(n3)CN(Cc3ccccn3)Cc3cccc(n3)C2)nc1  r1 relaxivity (HEPES buffer with NaCl; 33 °C, 1.4 T): 2.53 mM⁻¹ s⁻¹
C[C@H](NC(=O)COC(=O)[C@H](C)NC(=O)CO)C(=O)O  backbone scission rate constant (water; pH 2, 65 °C): 0.0128 h⁻¹
CCC(CC)n1c(Cc2cccs2)nc2cc(C(=O)N[C@@H](CC(=O)O)c3ccccc3)ccc21  blood pressure (measured: systolic, diastolic pressure; mouse; dose not given, 2 wk): decreased
COC1CN([C@H]2CC[C@H]([C@@]3(C)Oc4c(Cl)cc(C(=O)NCc5c(SC)cc(C)[nH]c5=O)c(C)c4O3)CC2)C1  log2 fold change (RNA-seq, measured: MPV17L; human, whole blood; dose not given, 24 h; relative to: pretreatment baseline): 1.45
O=S(=O)(NCc1ccncc1)c1ccc(C2CCCCC2)cc1  improvement in escape latency (Morris water maze; CK-p25 mouse; intraperitoneal, 0.3 mg/kg daily, 6 weeks, final day vs first; relative to: first trial): 67.4 ± 30.1%
Cc1ccc([N+](=O)[O-])cc1S(=O)(=O)N(C)/N=C/c1cnc2ccc(Br)cn12  annexin V+/PI+ cells (peripheral blood mononuclear cells, Sézary syndrome patients; 200 nM): 17.8%
CN(C)Cc1nc(Nc2ccc(-c3cnc4cc(F)ccn34)c3c2C(=O)NC3)ccc1C1CCOC1 (centres unmarked)  complete responses (mouse EMT6 syngeneic tumour; 75 mg/kg per day, day 28): 6 mice of 20
COc1cccc(OCCN2CCC[C@H](CN3CCc4cc(OC)c(OC)cc4CC3=O)C2)c1  time in centre, open field (C57BL/6J mouse, male, chronic social defeat stress; intraperitoneal, 5 mg/kg, 14 d post-dose; relative to: before dosing): no effect
CN1CCC[C@]1(C)/C=C/S(=O)(=O)NC(=O)Nc1c2c(cc3c1CCC3)CCC2  IL-18 inhibition (human, whole blood ex vivo; 50 mg twice daily, day 1, 6 h, multiple ascending dose, together with: LPS and ATP): 84.2%
NC[C@@H](C(=O)Nc1ccc(-c2cn[nH]c2)cc1)c1ccccc1  IOP (tonometry; NZW rabbit, magnetic bead-induced ocular hypertension; ocular, 0.1%, 2 h): 33.1 mmHg
CC(C)C[C@H](NC(=O)CNC(=O)[C@H](CCC(N)=O)NC(=O)[C@H](CC(C)C)NC(=O)[C@H](CC(C)C)NC(=O)[C@H](CCCNC(=N)N)NC(=O)[C@H](CCC(N)=O)NC(=O)[C@H](CC(C)C)NC(=O)[C@H](CCCNC(=N)N)NC(=O)[C@H](C)NC(=O)CNC(=O)[C@H](CCC(=O)O)NC(=O)[C@H](CCCNC(=N)N)NC(=O)[C@H](CC(C)C)NC(=O)[C@H](CCCNC(=N)N)NC(=O)[C@H](CO)NC(=O)[C@H](CC(C)C)NC(=O)[C@H](CCC(=O)O)NC(=O)[C@H](CO)NC(=O)[C@@H](NC(=O)[C@H](Cc1ccccc1)NC(=O)[C@@H](NC(=O)CNC(=O)[C@H](CC(=O)O)NC(=O)C(C)(C)NC(=O)[C@@H](N)Cc1c[nH]cn1)[C@@H](C)O)[C@@H](C)O)C(=O)N[C@@H](CC(C)C)C(=O)N[C@@H](CCC(N)=O)C(=O)NCC(=O)N[C@@H](CC(C)C)C(=O)N[C@H](C(=O)NCC(=O)N[C@@H](CCCCNC(=O)COCCOCCNC(=O)COCCOCCNC(=O)CC[C@H](NC(=O)CCCCCCCCCCCCCCCCC(=O)O)C(=O)O)C(N)=O)C(C)C  plasma glucagon (DIO C57BL/6J mice; sc, 300 nmol/kg twice daily, end of 8 days): decreased
CCCCCc1ccc(S(=O)(=O)N2CC2C(=O)OC)cc1 (centres unmarked)  tumour volume (mouse, Lewis lung carcinoma; intraperitoneal, 15 mg/kg, 16 doses, day 12): 366 mm3
COc1cc(O)ccc1CCC(c1ccc(O)cc1)c1cc2c(c(C)c1O)OC(c1ccc(O)cc1)CC2 (mixture of isomers)  20-OH-LTB4 level (human blood; 30 µM, together with: A23187): 3 ± 3 pg/mL
COc1ccc2cc3[n+](cc2c1OCCCOC(=O)c1cscn1)CCc1cc2c(cc1-3)OCO2  plasma triglyceride reduction (C57BL/6 mice, high-fat diet; oral gavage, 20 mg/kg daily, 14 weeks; relative to: HFD control): 35.6%
N=C(N)NCCC[C@@H]1NC(=O)[C@H](CCCNC(=N)N)NC(=O)[C@@H](CCCNC(=N)N)NC(=O)[C@@H](CCCNC(=N)N)NC(=O)[C@@H](C(c2ccccc2)c2ccccc2)NC(=O)[C@H](Cc2c[nH]c3ccccc23)NC(=O)[C@@H](C(c2ccccc2)c2ccccc2)NC1=O  calcein leakage (mammalian membrane liposomes; 50 µg/mL, 100 min): 12 to 18%
COc1c(Cl)cccc1Nc1c(-c2ccncc2C#C[C@@]2(C)CCCN2C(=O)/C=C/CN(C)C)[nH]c2c1C(=O)NCC2  tumour growth inhibition (male NSG mouse, PDX; 50 mg/kg once daily, 42 days, EGFR SVD): 126%
COc1ccc(C(=O)CCc2cc(C(CCc3ccc(O)cc3OC)c3ccc(O)cc3)c(O)cc2OC)cc1 (racemic)  DHA level (human blood; 1 µM, together with: A23187): 117000 ± 33600 pg/mL
CC(CCC(=O)NCc1ccc(C(=O)NO)cc1)C1CCC2C3C(O)CC4CC(O)CCC4(C)C3CCC12C (centres unmarked)  relative abundance (measured: Glyco-conj; PCK rat (Pkhd1 mutant), portal blood; oral gavage, dose not given, 5 months; relative to: total bile acids): 10.9%
CC(=O)[O-].O.O.[O-]c1ccc(Br)cc1C=NCCN1CCOCC1.[Zn+2]  inhibition (nitric oxide scavenging; 160 µM): 37.8%
COc1cnc2cccc(N3CCc4c(cc(Cn5ccnc5)cc4-c4cn(C)nc4C(F)(F)F)C3=O)c2c1  tumour volume (BALB/c nude mice, MV4-11 xenograft; intraperitoneal, 50 mg/kg, day 17): 188 mm3 and 136 mm3 and 207 mm3 and 162 mm3 and 143 mm3
